{"data": "Results of several laboratories", "note": "Every numbered part comes from another study and shows a few of its results, in no order. Substitutions count along the parent as printed."}
{"data": "Block 1", "target": "Ras GTPase-activating protein-binding protein 1, C-terminal RGG region (G3BP1, Homo sapiens, UniProt Q13283)", "technique": "RNA Bind-n-Seq", "form": "RNA", "sample": "in vitro", "concentration": "1 µM", "setting": "whole 134-nt RNA, ends assumed", "added": "150 mM KCl", "relative to": "input library", "direction": "higher = stronger binding", "all sequences stand within": "GGGAGUUCUACAGUCCGACGAUC … UGGAAUUCUCGGGUGUCAAGG", "chain of UniProt Q13283 (whole entry, looked up)": "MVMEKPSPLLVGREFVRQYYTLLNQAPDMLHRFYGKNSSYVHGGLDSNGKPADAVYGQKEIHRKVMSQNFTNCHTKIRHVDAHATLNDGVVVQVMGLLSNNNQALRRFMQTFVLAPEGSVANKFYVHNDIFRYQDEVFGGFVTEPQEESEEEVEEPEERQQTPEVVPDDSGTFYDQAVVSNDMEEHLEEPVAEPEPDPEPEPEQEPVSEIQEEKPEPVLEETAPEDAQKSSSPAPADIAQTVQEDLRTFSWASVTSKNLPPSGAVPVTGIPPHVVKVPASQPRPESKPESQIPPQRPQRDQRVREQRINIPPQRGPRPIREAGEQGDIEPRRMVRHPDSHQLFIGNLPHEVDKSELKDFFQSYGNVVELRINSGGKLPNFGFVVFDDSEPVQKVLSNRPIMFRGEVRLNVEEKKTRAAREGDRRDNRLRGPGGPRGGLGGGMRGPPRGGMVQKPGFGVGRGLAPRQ"}
{"Oligonucleotide": "CUGUGCUACACAUCGUAUGUACCGAAUCGGGGUUUGGGGAAAAAAAGGGGUUUUUUUGGGGAAAGUAUUAUGUUACGCCGUUCGGAUCUG", "log2 enrichment": 0.649}
{"Oligonucleotide": "AGUCCUGUGCUACACAUCGUAUGUACCGAAUCGGUUUUUGGAAAAAAAGGAAAAAGGAAAGUAUUAUGUUACGCCGUUCGGAUCUGCACU", "log2 enrichment": -2.33}
{"Oligonucleotide": "UUUAGCCUGUGGAAUGAUAGCAGUAGGGUCCUGCAAUGGAGAUGUAACUUCCACUAUCCUUCAGACCAUCAUGGAGAAGUCAGAGACUGA", "log2 enrichment": -0.862}
{"Oligonucleotide": "CAAGUCCUGUGCUACACAUCGUAUGUACCGAAUCGGGAAAAAGGGUUUGGGUGGGAAAGUAUUAUGUUACGCCGUUCGGAUCUGCACUUC", "log2 enrichment": 2.01}
{"Oligonucleotide": "UCGCCCUGGUGGCAUGCGGGGAGGAAGAGGUGGCCUCAUGGAUCGUGGUGGUCCCGGUGGAAUGUUCAGAGGUGGCCGUGGUGGAGACAG", "log2 enrichment": 2.37}
{"Oligonucleotide": "UCCUCAAGUCCUGUGCUACACAUCGUAUGUACCGAAUCGGUGGAAAGGUGGAAAGUAUUAUGUUACGCCGUUCGGAUCUGCACUUCCAGC", "log2 enrichment": -0.897}
{"Oligonucleotide": "CAAGUCCUGUGCUACACAUCGUAUGUACCGAAUCGGGGAAAGGGGUGGGGAGGGGAAAGUAUUAUGUUACGCCGUUCGGAUCUGCACUUC", "log2 enrichment": 2.85}
{"Oligonucleotide": "UCCUGUGCUACACAUCGUAUGUACCGAAUCGGGUUUUUUGGGGUUUUUUGGUUUUUUGGGAAAGUAUUAUGUUACGCCGUUCGGAUCUGC", "log2 enrichment": -0.365}
{"Oligonucleotide": "CUCAAGUCCUGUGCUACACAUCGUAUGUACCGAAUCGGAGGAAAAAAAGGAGGAAAGUAUUAUGUUACGCCGUUCGGAUCUGCACUUCCA", "log2 enrichment": -1.31}
{"data": "Block 2", "target": "Sal-like protein 4, full length isoform A (SALL4, Homo sapiens, UniProt Q9UJQ4, residues 1-1053)", "technique": "universal PBM", "form": "double-stranded DNA, one strand shown", "sample": "in vitro", "concentration": "600 nM", "setting": "8-mer, flanks averaged, mean of replicates", "direction": "higher = stronger binding", "chain of UniProt Q9UJQ4 (whole entry, looked up)": "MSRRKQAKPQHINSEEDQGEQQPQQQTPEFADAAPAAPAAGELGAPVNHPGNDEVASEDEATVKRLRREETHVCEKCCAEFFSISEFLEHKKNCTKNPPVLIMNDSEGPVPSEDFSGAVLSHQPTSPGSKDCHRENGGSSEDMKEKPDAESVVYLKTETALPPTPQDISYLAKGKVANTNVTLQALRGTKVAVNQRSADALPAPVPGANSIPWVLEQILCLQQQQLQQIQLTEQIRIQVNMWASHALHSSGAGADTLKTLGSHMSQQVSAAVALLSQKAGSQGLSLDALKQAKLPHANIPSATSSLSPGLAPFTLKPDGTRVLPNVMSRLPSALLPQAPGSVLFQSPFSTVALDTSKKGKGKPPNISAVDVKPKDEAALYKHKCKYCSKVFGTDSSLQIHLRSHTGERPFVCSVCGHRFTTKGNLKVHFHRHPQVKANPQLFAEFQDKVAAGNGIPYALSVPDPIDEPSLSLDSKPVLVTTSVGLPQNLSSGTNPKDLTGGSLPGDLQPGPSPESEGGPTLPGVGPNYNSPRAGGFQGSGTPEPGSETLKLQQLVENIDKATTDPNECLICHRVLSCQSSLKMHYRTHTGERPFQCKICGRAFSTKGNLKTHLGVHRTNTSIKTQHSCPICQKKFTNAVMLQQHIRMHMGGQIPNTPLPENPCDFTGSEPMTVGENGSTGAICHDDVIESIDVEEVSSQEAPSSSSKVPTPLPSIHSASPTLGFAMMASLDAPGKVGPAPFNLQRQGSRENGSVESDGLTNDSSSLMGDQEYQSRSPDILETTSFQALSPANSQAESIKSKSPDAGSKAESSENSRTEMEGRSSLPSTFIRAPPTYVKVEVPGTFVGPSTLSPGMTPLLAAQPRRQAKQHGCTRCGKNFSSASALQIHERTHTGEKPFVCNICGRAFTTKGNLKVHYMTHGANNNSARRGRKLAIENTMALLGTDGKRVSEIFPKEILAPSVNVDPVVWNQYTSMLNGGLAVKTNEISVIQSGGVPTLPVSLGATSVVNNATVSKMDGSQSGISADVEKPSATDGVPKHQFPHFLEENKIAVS"}
{"Oligonucleotide": "CCATGGCC", "E-score": -0.379}
{"Oligonucleotide": "GCGTACAA", "E-score": -0.0611}
{"Oligonucleotide": "CAATCGTA", "E-score": 0.247}
{"Oligonucleotide": "AATGTGCG", "E-score": 0.0782}
{"Oligonucleotide": "GAATGGCC", "E-score": -0.197}
{"Oligonucleotide": "AGCCCGAC", "E-score": -0.379}
{"Oligonucleotide": "ATCGCGGA", "E-score": -0.115}
{"Oligonucleotide": "AGGCGTAT", "E-score": 0.165}
{"Oligonucleotide": "AGGTATGC", "E-score": 0.12}
{"Oligonucleotide": "CTTTCGTA", "E-score": 0.12}
{"Oligonucleotide": "GTGTAGAA", "E-score": 0.0622}
{"Oligonucleotide": "ACATAACT", "E-score": 0.305}
{"Oligonucleotide": "CTCAAACC", "E-score": -0.214}
{"Oligonucleotide": "CAGTGCGC", "E-score": -0.27}
{"Oligonucleotide": "GCCCAAGA", "E-score": -0.246}
{"Oligonucleotide": "CGACCCGA", "E-score": -0.275}
{"Oligonucleotide": "ATGGGGTA", "E-score": -0.00496}
{"Oligonucleotide": "CTCGAAGC", "E-score": -0.201}
{"Oligonucleotide": "CTCCTCTC", "E-score": -0.196}
{"Oligonucleotide": "CCTTCCAC", "E-score": -0.0892}
{"Oligonucleotide": "ATGGGACA", "E-score": -0.127}
{"Oligonucleotide": "GCCTGTAC", "E-score": -0.0297}
{"Oligonucleotide": "ATAGTCGA", "E-score": 0.0962}
{"Oligonucleotide": "CATGCAGC", "E-score": -0.144}
{"Oligonucleotide": "ACCAGGTA", "E-score": -0.129}
{"data": "Block 3", "target": "CCNF, cyclin fold, Cln2 fusion (human)", "technique": "yeast growth competition, sequencing", "sample": "yeast", "setting": "strong parent motif", "relative to": "not given", "direction": "higher = stronger binding", "starting sequence": "WEE1 docking peptide (human); HKTFRKLRLFDTP"}
{"Variant": "HKTFRKHRLFDTP [L7H]", "normalised enrichment score": 0.94}
{"Variant": "HKTFRKLMLFDTP [R8M]", "normalised enrichment score": 3.33}
{"Variant": "HKTFRKLRLFDNP [T12N]", "normalised enrichment score": 2.77}
{"Variant": "HKTFRKLRLADTP [F10A]", "normalised enrichment score": 1.95}
{"Variant": "HKTFRKPRLFDTP [L7P]", "normalised enrichment score": 0.78}
{"Variant": "HKTFRKCRLFDTP [L7C]", "normalised enrichment score": 2.62}
{"Variant": "HKTFRKLILFDTP [R8I]", "normalised enrichment score": 5.48}
{"Variant": "HKTFRKLRLFDDP [T12D]", "normalised enrichment score": 3.1}
{"Variant": "HKTFRKLRLFDGP [T12G]", "normalised enrichment score": 3.49}
{"Variant": "HKTFRKLRLFDLP [T12L]", "normalised enrichment score": 1.94}
{"Variant": "HKWFRKLRLFDTP [T3W]", "normalised enrichment score": 2.22}
{"Variant": "HKTRRKLRLFDTP [F4R]", "normalised enrichment score": 5.67}
{"Variant": "HKTYRKLRLFDTP [F4Y]", "normalised enrichment score": 2.79}
{"Variant": "HLTFRKLRLFDTP [K2L]", "normalised enrichment score": 2.31}
{"Variant": "HKTFRKLRYFDTP [L9Y]", "normalised enrichment score": 3.4}
{"Variant": "HKTKRKLRLFDTP [F4K]", "normalised enrichment score": 3.36}
{"Variant": "HKTFRKDRLFDTP [L7D]", "normalised enrichment score": 0.119}
{"Variant": "WKTFRKLRLFDTP [H1W]", "normalised enrichment score": 2.58}
{"Variant": "HKTFRKRRLFDTP [L7R]", "normalised enrichment score": 2.13}
{"Variant": "HKTFRKLREFDTP [L9E]", "normalised enrichment score": 1.24}
{"Variant": "HKTFRKLRNFDTP [L9N]", "normalised enrichment score": 1.22}
{"data": "Block 4", "target": "ABI1, truncated, D143A, DHFR fusion (Arabidopsis thaliana)", "technique": "DHFR PCA, deep sequencing", "sample": "yeast", "setting": "methotrexate growth selection, single substitutions", "added": "(+)-ABA 58 µM", "relative to": "wild-type fitted maximum", "direction": "higher = stronger binding", "starting sequence": "PYL1, truncated, DHFR fusion (Arabidopsis thaliana); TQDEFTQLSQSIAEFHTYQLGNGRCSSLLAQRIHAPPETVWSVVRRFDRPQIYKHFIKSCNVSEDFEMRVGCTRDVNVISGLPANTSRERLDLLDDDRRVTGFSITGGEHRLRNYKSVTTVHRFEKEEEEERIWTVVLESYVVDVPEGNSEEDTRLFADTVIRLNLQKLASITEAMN; partner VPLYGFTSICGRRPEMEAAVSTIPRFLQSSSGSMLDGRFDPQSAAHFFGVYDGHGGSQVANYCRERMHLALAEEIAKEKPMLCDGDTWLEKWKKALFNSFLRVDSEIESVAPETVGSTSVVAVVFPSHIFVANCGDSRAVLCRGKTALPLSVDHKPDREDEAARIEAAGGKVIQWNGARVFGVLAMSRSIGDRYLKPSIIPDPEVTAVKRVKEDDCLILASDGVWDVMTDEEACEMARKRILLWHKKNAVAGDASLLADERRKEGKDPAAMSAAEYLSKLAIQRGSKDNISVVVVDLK"}
{"Variant": "A35I", "relative binding score [%]": -1.71}
{"Variant": "R88I", "relative binding score [%]": 85.1}
{"Variant": "I105M", "relative binding score [%]": 57}
{"Variant": "L169V", "relative binding score [%]": 9.71}
{"Variant": "Q7F", "relative binding score [%]": 82.2}
{"Variant": "S27G", "relative binding score [%]": 93}
{"Variant": "D65T", "relative binding score [%]": 80.7}
{"Variant": "I57H", "relative binding score [%]": -11.4}
{"Variant": "S87D", "relative binding score [%]": -13.8}
{"Variant": "R24D", "relative binding score [%]": 50.6}
{"Variant": "N165F", "relative binding score [%]": -9.69}
{"Variant": "R111L", "relative binding score [%]": 64.5}
{"Variant": "N149S", "relative binding score [%]": 80.7}
{"Variant": "L20S", "relative binding score [%]": 91.8}
{"Variant": "G148V", "relative binding score [%]": 23.6}
{"data": "Block 5", "target": "Hepatocyte nuclear factor 3-beta, forkhead domain (FOXA2, Homo sapiens, UniProt Q9Y261, residues 142-269)", "technique": "protein-binding microarray", "form": "double-stranded DNA, one strand shown", "sample": "in vitro", "concentration": "not given", "setting": "k-mer, scored over probes, only values ≥0.25", "direction": "higher = stronger binding", "Construct (chain)": "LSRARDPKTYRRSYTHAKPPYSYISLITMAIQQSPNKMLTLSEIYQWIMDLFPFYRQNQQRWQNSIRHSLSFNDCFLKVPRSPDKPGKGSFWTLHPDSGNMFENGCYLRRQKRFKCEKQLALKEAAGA"}
{"Oligonucleotide": "AAACACTC", "E-score": 0.276}
{"Oligonucleotide": "ACACAACT", "E-score": 0.25}
{"Oligonucleotide": "AACATATG", "E-score": 0.341}
{"Oligonucleotide": "GAGATCAA", "E-score": 0.287}
{"Oligonucleotide": "AAAGTGTA", "E-score": 0.358}
{"Oligonucleotide": "CATCGATA", "E-score": 0.263}
{"Oligonucleotide": "ATTGTATG", "E-score": 0.283}
{"Oligonucleotide": "ACGTATAC", "E-score": 0.267}
{"Oligonucleotide": "ACATAAAT", "E-score": 0.323}
{"Oligonucleotide": "TAATAAAA", "E-score": 0.277}
{"Oligonucleotide": "AAACAAGA", "E-score": 0.251}
{"Oligonucleotide": "ATAAACAC", "E-score": 0.269}
{"Oligonucleotide": "AACGTTAA", "E-score": 0.275}
{"Oligonucleotide": "CGTGGTAA", "E-score": 0.28}
{"Oligonucleotide": "CACAATAC", "E-score": 0.265}
{"Oligonucleotide": "CTTATTGA", "E-score": 0.304}
{"Oligonucleotide": "CGTAAATA", "E-score": 0.299}
{"Oligonucleotide": "AACTTATA", "E-score": 0.257}
{"data": "Block 6", "target": "Histone acetyltransferase KAT6A, winged helix 2, GST fusion (KAT6A, Homo sapiens, UniProt Q92794, residues 85-181)", "technique": "protein binding microarray", "form": "double-stranded DNA, one strand shown", "sample": "in vitro", "concentration": "not given", "setting": "8-mer, flanks averaged, mean of 2 arrays, mostly near background", "relative to": "not given", "direction": "higher = stronger binding", "Residues (chain)": "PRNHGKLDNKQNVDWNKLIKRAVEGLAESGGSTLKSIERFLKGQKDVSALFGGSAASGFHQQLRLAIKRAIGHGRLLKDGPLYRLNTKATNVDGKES"}
{"Oligonucleotide": "ACTTTGGA", "E-score": 0.0791}
{"Oligonucleotide": "CGTATTAC", "E-score": -0.192}
{"Oligonucleotide": "AGTGTGCA", "E-score": 0.0322}
{"Oligonucleotide": "ATATGATC", "E-score": 0.11}
{"Oligonucleotide": "AACGAAAA", "E-score": -0.0603}
{"Oligonucleotide": "ATTCGAAG", "E-score": 0.0767}
{"Oligonucleotide": "AGTCTCCA", "E-score": -0.0329}
{"Oligonucleotide": "AAATCTGA", "E-score": 0.0281}
{"Oligonucleotide": "ATATTCGC", "E-score": -0.0217}
{"Oligonucleotide": "ATGGCATC", "E-score": -0.0757}
{"Oligonucleotide": "AAGTTAGA", "E-score": -0.0597}
{"Oligonucleotide": "GATGGTCA", "E-score": 0.0734}
{"Oligonucleotide": "CTCCTGCC", "E-score": 0.153}
{"Oligonucleotide": "CCTCGAGC", "E-score": 0.106}
{"Oligonucleotide": "AACGAATG", "E-score": 0.0587}
{"Oligonucleotide": "GACGCAGC", "E-score": 0.0991}
{"note": "For quick reference, copied from above (block 2):"}
{"Oligonucleotide": "GCCCAAGA", "E-score": -0.246}
{"Oligonucleotide": "AGCCCGAC", "E-score": -0.379}
{"Oligonucleotide": "GCCTGTAC", "E-score": -0.0297}
{"Oligonucleotide": "GTGTAGAA", "E-score": 0.0622}
{"Oligonucleotide": "CTCAAACC", "E-score": -0.214}
{"Oligonucleotide": "CCTTCCAC", "E-score": -0.0892}
{"Oligonucleotide": "ACCAGGTA", "E-score": -0.129}
{"Oligonucleotide": "AGGTATGC", "E-score": 0.12}
{"Oligonucleotide": "CAATCGTA", "E-score": 0.247}
{"Oligonucleotide": "CTCGAAGC", "E-score": -0.201}
{"Oligonucleotide": "AATGTGCG", "E-score": 0.0782}
{"Oligonucleotide": "CTCCTCTC", "E-score": -0.196}
{"Oligonucleotide": "CCATGGCC", "E-score": -0.379}
{"Oligonucleotide": "ATGGGACA", "E-score": -0.127}
{"Oligonucleotide": "ATCGCGGA", "E-score": -0.115}
{"Oligonucleotide": "ATAGTCGA", "E-score": 0.0962}
{"Oligonucleotide": "ATGGGGTA", "E-score": -0.00496}
